Published values collected from several papers.
Compare with care: the assays were run in different laboratories. ± gives the spread as reported.

Structure (SMILES) = CC[C@H](C)[C@H](NC(=O)[C@H](CCCCN)NC(=O)CNC(=O)[C@H](CC(C)C)NC(=O)[C@H](Cc1ccccc1)NC(=O)[C@H](CCCCN)NC(=O)[C@H](CO)NC(=O)[C@H](Cc1ccccc1)NC(=O)[C@H](Cc1c[nH]c2ccccc12)NC(=O)[C@H](CCC(N)=O)NC(=O)[C@@H](NC(=O)[C@H](Cc1ccccc1)NC(=O)CCCCCNC(=O)CN1CCN(CC(=O)O)CCN(CC(=O)O)CCN(CC(=O)O)CC1)C(C)C)C(=O)N[C@@H](CCC(=O)O)C(=O)N1CCC[C@H]1C(=O)N[C@@H](CC(=O)O)C(=O)N[C@H](C(=O)N[C@@H](CO)C(=O)N[C@@H](CCC(N)=O)C(=O)N[C@H](C(=O)N[C@@H](CCC(N)=O)C(=O)N[C@@H](CC(=O)O)C(=O)N1CCC[C@H]1C(=O)N[C@@H](CC(N)=O)C(=O)N[C@@H](CC(=O)O)C(=O)N[C@@H](CCC(N)=O)C(=O)N[C@@H](Cc1ccc(O)cc1)C(=O)N[C@@H](CCC(=O)O)C(=O)N1CCC[C@H]1C(=O)N[C@@H](Cc1ccccc1)C(=O)O)C(C)C)C(C)C [copper-64 labelled]; system = C57BL/6 mice, bone; conditions = added: LPS 3 mg/kg intratracheal; endpoint = tissue uptake; result = 0.71 ± 0.07 %ID/g
Structure (SMILES) = CSCC[C@H](NC(=O)CNC(=O)[C@H](CCCCN)NC(=O)[C@H](CC(C)C)NC(=O)[C@@H]1CCCN1C(=O)[C@H](CO)NC(=O)[C@H](Cc1c[nH]cn1)NC(=O)[C@H](Cc1c[nH]c2ccccc12)NC(=O)[C@H](CCCNC(=N)N)NC(=O)[C@H](CC(C)C)NC(=O)[C@H](CCCNC(=N)N)NC(=O)[C@H](Cc1c[nH]c2ccccc12)NC(=O)[C@H](CS)NC(=O)CCCCCNC(=O)CN1CCN(CC(=O)O)CCN(CC(=O)O)CCN(CC(=O)O)CC1)C(=O)O [copper-64 labelled]; assay = ex vivo biodistribution; system = BALB/c nude mice, muscle; conditions = intravenous, dose not given, 18 h, Huh-7 tumour-bearing; endpoint = tissue uptake; result = 0.55 %ID/g
Structure (SMILES) = O=C1NC2(CC2)COc2ncc(F)cc2[C@H]2COCCN2c2ccn3ncc1c3n2; system = Sprague-Dawley rat, female, blood; conditions = oral, 20 mg/kg/day, 4 weeks, end of recovery, subacute toxicity; endpoint = monocyte percentage; result = 1.5 ± 0.9%
Structure (SMILES) = CC[C@H](C)[C@H](NC(=O)[C@H](CCCNC(=N)N)NC(=O)[C@H](CCCCN)NC(=O)[C@H](Cc1ccc(O)cc1)NC(=O)[C@H](CC(=O)O)NC(=O)[C@H](C)NC(=O)CNC(=O)CCOCCOCCOCCNC(=O)CN1CCN(CC(=O)O)CCN(CC(=O)O)CCN(CC(=O)O)CC1)C(=O)N[C@H](C(=O)N[C@@H](CC(C)C)C(=O)N[C@@H](CCCCN)C(=O)N[C@H](C(=O)N[C@@H](CC(N)=O)C(N)=O)C(C)C)[C@@H](C)O [copper-64 labelled]; assay = ex vivo gamma counting; system = C57BL/6J male mice, B16-F10 tumour, pancreas; conditions = intravenous, 1.85 MBq, 20 min; endpoint = tissue uptake; result = 0.73 ± 0.287 %ID/g
Structure (SMILES) = Cc1ccccc1-c1ccc(-c2nc(-c3ccc(CN(C)CCCC(=O)O)c([18F])c3)no2)cc1C(F)(F)F; system = Sprague Dawley rats, male, pancreas; conditions = 30 min; endpoint = tissue uptake; result = 0.44 ± 0.1 %ID/g
Structure (SMILES) = CC(C)C[C@@H](NC(=O)[C@@H](CCCNC(=N)N)NC(=O)[C@@H](Cc1c[nH]cn1)NC(=O)[C@@H](Cc1c[nH]c2ccccc12)NC(=O)[C@@H](Cc1c[nH]cn1)NC(=O)[C@@H](Cc1ccccc1)NC(=O)[C@H](NC(=O)[C@@H](Cc1ccc(O)cc1)NC(=O)CNC(=O)CNC(=O)CCOCCOCCOCCNC(=O)CN1CCN(CC(=O)O)CCN(CC(=O)O)CC1)[C@H](C)O)C(=O)N[C@H](CC(N)=O)C(=O)N1CCC[C@@H]1C(=O)O [gallium-68 labelled]; system = C57BL/6 mice, male, kidney; conditions = intravenous, 1.85 MBq, 60 min, added: blocking antibody; endpoint = tissue uptake; result = 35.7 ± 3.06 %ID/g
Structure (SMILES) = C[C@H](O)[C@@H](NC(=O)[C@H]1CCCN1C(=O)[C@@H](CCCCN)NC(=O)[C@@H](CO)NC(=O)[C@@H](Cc1ccc(O)cc1)NC(=O)[C@@H](CC(N)=O)NC(=O)CCOCCOCCOCCNC(=O)CN1CCN(CC(=O)O)CCN(CC(=O)O)CCN(CC(=O)O)CC1)C(=O)N[C@H](CC(=O)O)C(=O)N[C@H](CCCNC(=N)N)C(=O)N[C@H](CCC(N)=O)C(=O)N[C@H](Cc1ccc(O)cc1)C(=O)N[C@H](Cc1c[nH]cn1)C(=O)N[C@H](Cc1ccccc1)C(N)=O [copper-64 labelled]; system = C57BL/6J mice, stomach; conditions = intravenous, 1.85 MBq, 0.6667 h, radiolabelled; endpoint = tissue uptake; result = 1.07 ± 0.44 %ID/g
Structure (SMILES) = CCCC[C@H]1C(=O)N(C)[C@@H](CCCC)C(=O)N[C@@H](CCCNC(=O)CN2CCN(CC(=O)O)CCN(CC(=O)O)CCN(CC(=O)O)CC2)C(=O)N[C@H](C(=O)NCC(N)=O)CSCC(=O)N[C@@H](Cc2ccc(O)cc2)C(=O)N(C)[C@@H](C)C(=O)N[C@@H](CC(N)=O)C(=O)N2CCC[C@H]2C(=O)N[C@@H](Cc2c[nH]cn2)C(=O)N[C@@H](CC(C)C)C(=O)N(C)CC(=O)N[C@@H](Cc2c[nH]c3ccccc23)C(=O)N[C@@H](CO)C(=O)N[C@@H](Cc2c[nH]c3ccccc23)C(=O)N1C [gallium-68 labelled]; system = NOD/SCID mice with CHO-hPD-L1 xenograft, muscle; conditions = 120 min post injection; endpoint = tissue uptake; result = 0.85 ± 0.36 %ID/g
Structure (SMILES) = O=C([O-])CNC(=O)CN1CCN(CC(=O)NCC(=O)[O-])CCN(CC(=O)NCC(=O)[O-])CCN(CC(=O)NCC(=O)[O-])CC1.[177Lu+3]; system = Sprague-Dawley rat, bone; conditions = intravenous (tail vein), dose not given, 2 h; endpoint = tissue uptake; result = 0.018 ± 0.005 % injected dose/g
Structure (SMILES) = CC[C@H](C)[C@H](NC(=O)[C@H](CCCNC(=N)N)NC(=O)[C@H](CCCCN)NC(=O)[C@H](Cc1ccc(O)cc1)NC(=O)[C@H](CC(=O)O)NC(=O)[C@H](C)NC(=O)CNC(=O)CCOCCOCCOCCNC(=O)CN1CCN(CC(=O)O)CCN(CC(=O)O)CCN(CC(=O)O)CC1)C(=O)N[C@H](C(=O)N[C@H](C(=O)N[C@@H](CCCCN)C(=O)N[C@H](C(=O)N[C@@H](CC(N)=O)C(N)=O)C(C)C)C(C)C)[C@@H](C)O [copper-64 labelled]; assay = ex vivo gamma counting; system = C57BL/6J male mice, B16-F10 tumour, testis; conditions = intravenous, 1.85 MBq, 40 min; endpoint = tissue uptake; result = 0.543 ± 0.082 %ID/g
Structure (SMILES) = CN1Cc2cc(Cl)ccc2-n2c(nnc2C2CCN(c3cccc([18F])n3)CC2)C1; system = C57BL/6 mouse male, bone; conditions = intravenous, 3.7 MBq, 1 min; endpoint = tissue uptake; result = 1.51 ± 0.83 %ID/g

For quick reference, copied from above:
Structure (SMILES) = C[C@H](O)[C@@H](NC(=O)[C@H]1CCCN1C(=O)[C@@H](CCCCN)NC(=O)[C@@H](CO)NC(=O)[C@@H](Cc1ccc(O)cc1)NC(=O)[C@@H](CC(N)=O)NC(=O)CCOCCOCCOCCNC(=O)CN1CCN(CC(=O)O)CCN(CC(=O)O)CCN(CC(=O)O)CC1)C(=O)N[C@H](CC(=O)O)C(=O)N[C@H](CCCNC(=N)N)C(=O)N[C@H](CCC(N)=O)C(=O)N[C@H](Cc1ccc(O)cc1)C(=O)N[C@H](Cc1c[nH]cn1)C(=O)N[C@H](Cc1ccccc1)C(N)=O [copper-64 labelled]; system = C57BL/6J mice, stomach; conditions = intravenous, 1.85 MBq, 0.6667 h, radiolabelled; endpoint = tissue uptake; result = 1.07 ± 0.44 %ID/g
